Results of several laboratories.
Each numbered part is a random draw from the data of one study; scales do not carry over between parts.

Sample 1 — method: RNA Bind-n-Seq; molecule type: RNA; sample: in vitro; concentration: 200 nM; setting: whole 134-nt RNA, ends assumed; with: 150 mM KCl; baseline: input library; direction: higher = stronger binding
Target: Ras GTPase-activating protein-binding protein 1, full length (G3BP1, Homo sapiens, UniProt Q13283)
Sequence of UniProt Q13283 (whole entry, looked up): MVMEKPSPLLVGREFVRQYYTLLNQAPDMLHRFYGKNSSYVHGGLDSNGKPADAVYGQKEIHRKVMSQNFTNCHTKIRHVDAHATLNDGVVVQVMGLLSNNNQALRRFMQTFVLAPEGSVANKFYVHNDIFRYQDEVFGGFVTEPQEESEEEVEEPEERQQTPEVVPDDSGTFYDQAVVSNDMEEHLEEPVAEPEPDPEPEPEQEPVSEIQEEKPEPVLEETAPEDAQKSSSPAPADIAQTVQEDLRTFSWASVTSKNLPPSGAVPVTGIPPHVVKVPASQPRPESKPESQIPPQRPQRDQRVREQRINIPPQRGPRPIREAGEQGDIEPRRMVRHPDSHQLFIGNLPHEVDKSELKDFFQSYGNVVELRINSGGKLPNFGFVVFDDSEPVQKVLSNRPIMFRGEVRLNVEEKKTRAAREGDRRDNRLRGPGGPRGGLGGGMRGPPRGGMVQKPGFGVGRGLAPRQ
All sequences stand within: GGGAGUUCUACAGUCCGACGAUC … UGGAAUUCUCGGGUGUCAAGG
`CACAGACAAAACGCACCCACACAGACACAGAGGGAAGGGGUUGGGAUGGGGACAGGGUGCACAGCAGGGCGGGGUAGGACCCCAGCCCCU` has a log2 enrichment of 1.84.
With `UAAAUUCAUCUGAAAAUGGUGAGGACAGGCACAAACGCAAAGAAAGAAAGUCAUCAAGAGGCAGAAGUCACUCAAGAUCUAGGUCUCGUG` the log2 enrichment was -1.48.
`CAAGUCCUGUGCUACACAUCGUAUGUACCGAAUCGGGUUUGGGAAAAAGGGUGGGAAAGUAUUAUGUUACGCCGUUCGGAUCUGCACUUC` gave a log2 enrichment of 1.02.
The log2 enrichment of `CAAGUCCUGUGCUACACAUCGUAUGUACCGAAUCGGUUUUUGGUUUUUGGUUUGGAAAGUAUUAUGUUACGCCGUUCGGAUCUGCACUUC` is reported as -1.1.
`GUCCUGUGCUACACAUCGUAUGUACCGAAUCGGGGUUUUUGGGGAGGGGUUUUUGGGGAAAGUAUUAUGUUACGCCGUUCGGAUCUGCAC` has a log2 enrichment of 0.293.
`GUCCUGUGCUACACAUCGUAUGUACCGAAUCGGGCCCCCGGGCCCCCGGGGCCCCCGGGAAAGUAUUAUGUUACGCCGUUCGGAUCUGCA` has a log2 enrichment of -1.1.
With `UCAAGUCCUGUGCUACACAUCGUAUGUACCGAAUCGGAAAAAAAGGUUUGGAGGAAAGUAUUAUGUUACGCCGUUCGGAUCUGCACUUCC` the log2 enrichment was -1.34.
The log2 enrichment of `UGGGAGGUGGAUUUUGUUUAUUUUUUUAGCUCAUUUCCAGGGGUGGGAAUGUUUUUUUAAUAUGUGUCAUGAAUAAAGUUGUUUUUGAAA` is reported as 0.294.
`CACAGACAACACGCACCCACACAGACACAGAGGGAAGGGGUUGGGAUGGGGACAGGUUGCACAGCAGGGCGGGGUAGGACCCCAGCCCCU` has a log2 enrichment of 1.6.

Sample 2 — method: RNA Bind-n-Seq; molecule type: RNA; sample: in vitro; concentration: 365 nM; baseline: no-protein control; direction: higher = stronger binding
Target: RNA binding protein fox-1 homolog 2, RRM domain, GST-SBP tag (RBFOX2, Homo sapiens, UniProt O43251-10, residues 100-194)
Setting: natural RNA segment, single round, ends assumed
All sequences stand within: GGGAGUUCUACAGUCCGACGAUC … UGGAAUUCUCGGGUGCCAA
Construct (chain): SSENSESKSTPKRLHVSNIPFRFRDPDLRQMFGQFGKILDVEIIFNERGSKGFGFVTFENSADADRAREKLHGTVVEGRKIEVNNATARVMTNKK
For `GAUAGUCACUGGCAGAGCUCUGCAUGGGUGAGAAGGUCCUGACUGCCGGCACCUAACAGCCUUAGUGUGGGGAUCUGGAGGCUGGCUUUGCUGGGGACAAUCCCGGGUAG`, “RBNS enrichment (R)” read 2.67.
`UCCACUGGUCUAGAACACGGCUUUGAGGGCGACAGACUGCGCCUCACUCUGCUGUCAGGUACAGGUCAAGUUCUUGGGGCCCACUUCUGAGUUUAGAAGACCUAUUACAA` — result for “RBNS enrichment (R)”: 0.25.
`AAGAUGCCCAGAGUGAUGGGUCAGCCCUUCUGCUCAAGCAGGCCGUGCCUGGCUGGUGCCAUUCAGACCGAGGCCGAAGGACUUGUGAACAAAAGCACAGAGAUGGCUCA` — result for “RBNS enrichment (R)”: 0.329.
Under “RBNS enrichment (R)”, `UUCACUGCUGGCUGGUGUGAUGGGUGUAGAGUGCCCACAGAUGAGUCUAUGGAUGUCUUGGCUCUGCUGUCCUGUACUUGCGUGUGUUUUAUUCCUAUUUAAUGUUAUUG` is recorded as 1.98.
`UCCUUUUUCUCUAGGGAGAAGACAUUGUCUUGGAGAACAGCUGGCUCGAAUGGAAAUGUUCUUGUUUUUUACAUCAUUACUUCAGCAAUUUCAUUUGCAUUUUCCACAUG`: “RBNS enrichment (R)” 0.313.
For `ACCAGCACUGCCGUGGGUCUCCUCACAUGGUCAAACGGAACACGGGGGGUUAGGCCUGUGUGCCCCCUCAACCCAUAACUGCUGUCAAACAAAGCAAACCUUGUAAAGUG`, “RBNS enrichment (R)” read 0.768.
For `CAGGCGCGCACCGCCCAACCCCCACCUCCCGGUGUAUGCAGUGGUGAUGCCUAAAGGAAUGUCACGCAGUUUUCGGUCUGUGUCGCUUGUUGACGCCGGCAGACAGUGUA`, “RBNS enrichment (R)” read 0.603.
`GUGCUUUCUAACAGCUUCUGGGUGCAGAUUUUCUUCGGCAUCCUUUUGCACUCAGCUUAUUACAGGUAGGUAGUGCUUAAGAAAAGUCAUGGAGGACUAAAGCCUAAGUC` — result for “RBNS enrichment (R)”: 0.329.

Sample 3 — method: protein-binding microarray; molecule type: double-stranded DNA, one strand shown; sample: in vitro; concentration: 250 nM; setting: 60-bp whole probe; with: salmon DNA 0.4 mg/ml; baseline: random background probes; direction: higher = stronger binding; all sequences stand within: GCCTAGCAC … GTCTTGATTCGCTTGACGCTGCTG
Target: Interferon regulatory factor 7, full length, phosphomimetic (IRF7, Homo sapiens, UniProt Q92985, residues 1-503, S101K/S471D/S472D/S475D/S476D/S477D/S483D/S484D/S487D)
Construct (chain): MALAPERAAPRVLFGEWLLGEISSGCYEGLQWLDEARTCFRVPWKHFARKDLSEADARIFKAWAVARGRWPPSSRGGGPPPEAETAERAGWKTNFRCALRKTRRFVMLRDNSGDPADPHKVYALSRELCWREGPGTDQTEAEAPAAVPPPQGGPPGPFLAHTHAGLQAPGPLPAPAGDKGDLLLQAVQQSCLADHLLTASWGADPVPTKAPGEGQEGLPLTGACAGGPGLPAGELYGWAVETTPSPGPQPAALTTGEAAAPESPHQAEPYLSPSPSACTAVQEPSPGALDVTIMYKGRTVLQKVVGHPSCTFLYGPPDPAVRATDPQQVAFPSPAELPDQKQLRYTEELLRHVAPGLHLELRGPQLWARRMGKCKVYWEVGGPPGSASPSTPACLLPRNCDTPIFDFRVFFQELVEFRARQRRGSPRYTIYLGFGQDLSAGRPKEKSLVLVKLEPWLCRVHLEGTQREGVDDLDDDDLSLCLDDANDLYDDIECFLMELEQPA
With `TTAGATCTCGGTCTCGGTTAGTGCTAG` the log fluorescence was 1.6 z-score.
`TTAGAACTGGGGTTTCGGTTAGTGCTA` has a log fluorescence of 5.71 z-score.
For `TCATGTCCCTATTTAAGACTGTGCTAG`, the log fluorescence was 3.02 z-score.
`TTAGAACTGAGACTGGATAAGTGCTAG` has a log fluorescence of -0.246 z-score.
`TTAGATCTCAGTATCGATTAGTGCTAG` has a log fluorescence of 0.99 z-score.
`GACGGTTTCGTTATCGGGACGTGCTAG` has a log fluorescence of 11.4 z-score.
`TTAGATTTCGGGGTTCGATTAGTGCTA` has a log fluorescence of 0.982 z-score.
`GACGGTTTCCTTTCCCAGACGTGCTAG` has a log fluorescence of 4.82 z-score.
For `TCAATTCTGAAAATGGAACTGTGCTAG`, the log fluorescence was 0.525 z-score.
`TTAGGTTCCGGTTACGGTTAGTGCTAG` gave a log fluorescence of 4.53 z-score.
For `TTAGATTTCGGGACTGAATTAGTGCTA`, the log fluorescence was 0.464 z-score.
`TCACTTCTGGACTGTTTGACTGTGCTA` has a log fluorescence of 0.414 z-score.
The log fluorescence of `TCAAATGACCTTCTCAGACTGTGCTAG` is reported as -0.458 z-score.
For `TACGGTTTCGGGTTTCGGGACGTGCTA`, the log fluorescence was 11.8 z-score.
For `TTAGGTTTCGACACTGCGTTAGTGCTA`, the log fluorescence was 3.5 z-score.
The log fluorescence of `GAAAATCCCACATTTGATAAAGTGCTA` is reported as 0.765 z-score.
With `GACGACATCAGTATCGAGACGTGCTAG` the log fluorescence was -0.0315 z-score.
With `TCAGTTTTGAGCTCTGTCACTGTGCTA` the log fluorescence was 0.119 z-score.
`TTAGATTTGGGGACTGGATTAGTGCTA` has a log fluorescence of -0.241 z-score.

Sample 4 — method: protein binding microarray; molecule type: double-stranded DNA, one strand shown; sample: in vitro; concentration: not given; baseline: not given; direction: higher = stronger binding
Target: Histone acetyltransferase KAT6A, winged helix 2, GST fusion (KAT6A, Homo sapiens, UniProt Q92794, residues 85-181)
Setting: 8-mer, flanks averaged, mean of 2 arrays, mostly near background
Target sequence (chain): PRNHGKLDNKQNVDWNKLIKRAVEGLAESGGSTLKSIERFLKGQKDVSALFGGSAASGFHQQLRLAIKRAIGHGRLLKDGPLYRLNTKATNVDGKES
`CTCGATCA` gave an E-score of 0.0864.
For `AAGTGCTA`, the E-score was -0.161.
The E-score of `CATTACCA` is reported as -0.0214.
`CTGCTATC` gave an E-score of 0.129.
For `AGAATAAA`, the E-score was -0.0733.
`CTGAGTGA` gave an E-score of 0.0665.
`GACCGATC` has an E-score of -0.0567.
The E-score of `AGCAGTAG` is reported as 0.0602.
`GGATGCAC` gave an E-score of -0.00392.
`AAATCGAG` has an E-score of 0.0573.
With `AGCCACCG` the E-score was 0.146.
`GACGAATA` gave an E-score of 0.0929.
For `CTATTCGA`, the E-score was -0.0559.
`ATAGTGCG` has an E-score of 0.0212.
For `GCGCGTGA`, the E-score was 0.11.
For `GGCCTACA`, the E-score was -0.0186.
With `TGGCACAA` the E-score was -0.0168.
`CGCCCCAA` gave an E-score of 0.239.
The E-score of `GGTCATAC` is reported as -0.0861.
`CAAGAAGG` gave an E-score of -0.123.
`AAACCACC` gave an E-score of -0.0966.
For `GTCATCTA`, the E-score was -0.0387.
`CGAGTTGC` gave an E-score of 0.121.
`AAGGAATC` gave an E-score of -0.0231.
The E-score of `GGGAGTTA` is reported as -0.102.

Repeated from above (sample 4):
`CGAGTTGC` gave an E-score of 0.121.
The E-score of `AGCAGTAG` is reported as 0.0602.
The E-score of `GGGAGTTA` is reported as -0.102.
`AAGGAATC` gave an E-score of -0.0231.
With `AGCCACCG` the E-score was 0.146.
`ATAGTGCG` has an E-score of 0.0212.
`GGATGCAC` gave an E-score of -0.00392.
`AAATCGAG` has an E-score of 0.0573.
For `GGCCTACA`, the E-score was -0.0186.
`CGCCCCAA` gave an E-score of 0.239.
